Experimental data gathered from unrelated publications.
Values joined by “and” are separate records of one study, mostly repeats; a detail may differ. ± gives the spread as reported.
U2AF2: U2AF2 148-342 (Homo sapiens, UniProt P26368)
Chain of UniProt P26368 (whole entry, looked up): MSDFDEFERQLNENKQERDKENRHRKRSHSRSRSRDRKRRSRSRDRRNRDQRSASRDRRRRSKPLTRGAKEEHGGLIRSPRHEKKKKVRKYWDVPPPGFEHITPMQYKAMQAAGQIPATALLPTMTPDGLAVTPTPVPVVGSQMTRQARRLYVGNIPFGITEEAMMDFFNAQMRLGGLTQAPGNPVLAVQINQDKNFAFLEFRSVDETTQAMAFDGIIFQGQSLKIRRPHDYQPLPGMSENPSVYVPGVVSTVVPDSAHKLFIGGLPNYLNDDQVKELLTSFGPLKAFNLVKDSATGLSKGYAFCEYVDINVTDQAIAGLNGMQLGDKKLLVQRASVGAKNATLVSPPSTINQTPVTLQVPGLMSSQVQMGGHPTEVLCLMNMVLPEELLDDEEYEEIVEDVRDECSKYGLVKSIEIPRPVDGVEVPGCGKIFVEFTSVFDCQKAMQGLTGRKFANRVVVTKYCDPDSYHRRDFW
B1: human AP2B1; sequence looked up; chain TDSKYFTTNKKGEIFELKAELNNEKKEKRKEAVKKVIAAMTVGKDVSSLFPDVVNCMQTDNLELKKLVYLYLMNYAKSQPDMAIMAVNSFVKDCEDPNPLIRALAVRTMGCIRVDKITEYLCEPLRKCLKDEDPYVRKTAAVCVAKLHDINAQMVEDQGFLDSLRDLIADSNPMVVANAVAALSEISESHPNSNLLDLNPQNINKLLTALNECTEWGQIFILDCLSNYNPKDDREAQSICERVTPRLSHANSAVVLSAVKVLMKFLELLPKDSDYYNMLLKKLAPPLVTLLSGEPEVQYVALRNINLIVQKRPEILKQEIKVFFVKYNDPIYVKLEKLDIMIRLASQANIAQVLAELKEYATEVDVDFVRKAVRAIGRCAIKVEQSAERCVSTLLDLIQTKVNYVVQEAIVVIRDIFRKYPNKYESIIATLCENLDSLDEPDARAAMIWIVGEYAERIDNADELLESFLEGFHDESTQVQLTLLTAIVKLFLKKPSETQELVQQVLSLATQDSDNPDLRDRGYIYWRLLSTDPVTAKEVVLSEKPLISEETDLIEPTLLDELICHIGSLASVYHKPPNAFVEGSHGIHRKHLPIHHGSTDAGDSPVGTTTATNLEQPQVIPSQGDLLGDLLNLDLGPPVNVPQVSSMQMGAVDLLGGGLDSLVGQSFIPSSVPATFAPSPTPAVVSSGLNDLFELSTGIGMAPGGYVAPKAVWLPAVKAKGLEISGTFTHRQGHIYMEMNFTNKALQHMTDFAIQFNKNSFGVIPSTPLAIHTPLMPNQSIDVSLPLNTLGPVMKMEPLNNLQVAVKNNIDVFYFSCLIPLNVLFVEDGKMERQVFLATWKDIPNENELQFQIKECHLNADTVSSKLQNNNVYTIAKRNVEGQDMLYQSLKLTNGIWILAELRIQPGNPNYTLSLKCRAPEVSQYIYQVYDSILKN
B2: PRPS3 (human); sequence looked up; chain PNIKIFSGSSHQDLSQKIADRLGLELGKVVTKKFSNQETCVEIDESVRGEDVYIVQSGCGEINDSLMELLIMINACKIASASRVTAVIPCFPYARQDKKDKSRSPISAKLVANMLSIAGADHIITMDLHASQIQGFFDIPVDNLYAEPTVLKWIRENIPEWKNCIIVSPDAGGAKRVTSIADQLNVDFALIHKERKKANEVDCIVLVGDVNDRVAILVDDMADTCVTICLAADKLLSAGATRVYAILTHGIFSGPAISRINTACFEAVVVTNTIPQDEKMKHCSKIRVIDISMILAEAIRRTHNGESVSYLFSHVPL
B3: PRPF19 (human); sequence looked up; chain SLICSISNEVPEHPCVSPVSNHVYERRLIEKYIAENGTDPINNQPLSEEQLIDIKVAHPIRPKPPSATSIPAILKALQDEWDAVMLHSFTLRQQLQTTRQELSHALYQHDAACRVIARLTKEVTAAREALATLKPQAGLIVPQAVPSSQPSVVGAGEPMDLGELVGMTPEIIQKLQDKATVLTTERKKRGKTVPEELVKPEELSKYRQVASHVGLHSASIPGILALDLCPSDTNKILTGGADKNVVVFDKSSEQILATLKGHTKKVTSVVFHPSQDLVFSASPDATIRIWSVPNASCVQVVRAHESAVTGLSLHATGDYLLSSSDDQYWAFSDIQTGRVLTKVTDETSGCSLTCAQFHPDGLIFGTGTMDSQIKIWDLKERTNVANFPGHSGPITSIAFSENGYYLATAADDSSVKLWDLRKLKNFKTLQLDNNFEVKSLIFDQSGTYLALGGTDVQIYICKQWTEILHFTEHSGLTTGVAFGHHAKFIASTGMDRSLKFYSL
B4: human FOXK1; sequence looked up; chain AEVGEDSGARALLALRSAPCSPVLCAAAAAAAFPAAAPPPAPAQPQPPPGPPPPPPPPLPPGAIAGAGSSGGSSGVSGDSAVAGAAPALVAAAAASVRQSPGPALARLEGREFEFLMRQPSVTIGRNSSQGSVDLSMGLSSFISRRHLQLSFQEPHFYLRCLGKNGVFVDGAFQRRGAPALQLPKQCTFRFPSTAIKIQFTSLYHKEEAPASPLRPLYPQISPLKIHIPEPDLRSMVSPVPSPTGTISVPNSCPASPRGAGSSSYRFVQNVTSDLQLAAEFAAKAASEQQADTSGGDSPKDESKPPFSYAQLIVQAISSAQDRQLTLSGIYAHITKHYPYYRTADKGWQNSIRHNLSLNRYFIKVPRSQEEPGKGSFWRIDPASEAKLVEQAFRKRRQRGVSCFRTPFGPLSSRSAPASPTHPGLMSPRSGGLQTPECLSREGSPIPHDPEFGSKLASVPEYRYSQSAPGSPVSAQPVIMAVPPRPSSLVAKPVAYMPASIVTSQQPAGHAIHVVQQAPTVTMVRVVTTSANSANGYILTSQGAAGGSHDAAGAAVLDLGSEARGLEEKPTIAFATIPAAGGVIQTVASQMAPGVPGHTVTILQPATPVTLGQHHLPVRAVTQNGKHAVPTNSLAGNAYALTSPLQLLATQASSSAPVVVTRVCEVGPKEPAAAVAATATTTPATATTASASASSTGEPEVKRSRVEEPSGAVTTPAGVIAAAGPQGPGTGE

`epoetin alfa` gave an EC50 of 0.021 nM (UT7/EPO; phosphorylation, agonist, measured: phospho-GSK-3β; 10 min).
The metabolite level of `cotadutide` is reported as 1.05 ± 0.06 scaled intensity (metabolomics, measured: hepatic glycine; ob/ob mice on AMLN diet, NASH model, liver; dose not given).
Under “log2 fold change”, `B1 (human AP2B1)` is recorded as -1.49 (PP6C (human); co-immunoprecipitation, IP-MS; CYB5R4 knockout cells; concentration not given; reference: CYB5R4 knockout over parental).
For `CUUUGCCUU (ssRNA)`, the Kd was 890 nM (U2AF2; sequencing of bound RNA; RNA; motif only).
With `caspofungin` the alanine aminotransferase was 25.3 U/L (adult ICU patients, mITT, serum; dose not given, day 4).
`B2 (PRPS3)` — result for “log2 fold change”: -2.43 (CYB5R4 knockout human cells; PP6 interaction, 3xFLAG-PP6C IP-MS; concentration not given; reference: CYB5R4 KO over parental).
`GSGAGPETLV` has a binding intensity of 0.262 (construct, MBP fusion, human SCRIB, PDZ 3-4; automated holdup; peptide, crude extract; concentration not given, corrected by standard peak, unit not given; reference: biotin control resin, higher = stronger binding).
`B3 (PRPF19)` — result for “log2 fold change”: 0.35 (CYB5R4 knockout human cells; PP4 interaction, 3xFLAG-PP4C IP-MS; concentration not given; reference: CYB5R4 KO over parental).
`Peginesatide` has an Emax of 92 ± 8% (UT7/EPO; phosphorylation, agonist, measured: phospho-ERK1/2; 10 min; reference: rHuEPO maximum).
With `milbemycin oxime` the OD600 was 1.05 and 1.11 and 1.02 (Saccharomyces cerevisiae; cell growth; Pdr5 deleted, Cdr1 overexpressed; 2^-8.966 µg/mL, with: fluconazole 10 µg/mL).
With `CUUUCCUUU (ssRNA)` the Kd was 390 nM (U2AF2; sequencing of bound RNA; RNA; motif only).
`GSGAGKETRV` has a binding intensity of 0.277 (construct, MBP fusion, human SCRIB, PDZ 3-4; automated holdup; peptide, crude extract; concentration not given, corrected by standard peak, unit not given; reference: biotin control resin, higher = stronger binding).
For `B4 (human FOXK1)`, “log2 fold change” read -1.5 (CYB5R4 knockout human cells; PP4 interaction, 3xFLAG-PP4C IP-MS; concentration not given; reference: CYB5R4 KO over parental).
`GSGAGKETYY` gave a binding intensity of -0.00728 (construct, MBP fusion, human SCRIB, PDZ 3-4; automated holdup; peptide, crude extract; concentration not given, corrected by standard peak, unit not given; reference: biotin control resin, higher = stronger binding).
For `colistin`, the MIC was 0.5 µg/mL (Acinetobacter baumannii; clinical isolate RKI 19/09).
